# Measurements of several laboratories.
# Each line is one published result; not all experiments were run side by side. ± gives the spread as reported.
# CDK2 with cyclin A2: Cyclin-dependent kinase 2, with cyclin A2 (CDK2, Homo sapiens, UniProt P24941)
# MERTK: Tyrosine-protein kinase Mer (MERTK, Homo sapiens, UniProt Q12866)
# UniProt Q12866, sequence (whole entry, looked up): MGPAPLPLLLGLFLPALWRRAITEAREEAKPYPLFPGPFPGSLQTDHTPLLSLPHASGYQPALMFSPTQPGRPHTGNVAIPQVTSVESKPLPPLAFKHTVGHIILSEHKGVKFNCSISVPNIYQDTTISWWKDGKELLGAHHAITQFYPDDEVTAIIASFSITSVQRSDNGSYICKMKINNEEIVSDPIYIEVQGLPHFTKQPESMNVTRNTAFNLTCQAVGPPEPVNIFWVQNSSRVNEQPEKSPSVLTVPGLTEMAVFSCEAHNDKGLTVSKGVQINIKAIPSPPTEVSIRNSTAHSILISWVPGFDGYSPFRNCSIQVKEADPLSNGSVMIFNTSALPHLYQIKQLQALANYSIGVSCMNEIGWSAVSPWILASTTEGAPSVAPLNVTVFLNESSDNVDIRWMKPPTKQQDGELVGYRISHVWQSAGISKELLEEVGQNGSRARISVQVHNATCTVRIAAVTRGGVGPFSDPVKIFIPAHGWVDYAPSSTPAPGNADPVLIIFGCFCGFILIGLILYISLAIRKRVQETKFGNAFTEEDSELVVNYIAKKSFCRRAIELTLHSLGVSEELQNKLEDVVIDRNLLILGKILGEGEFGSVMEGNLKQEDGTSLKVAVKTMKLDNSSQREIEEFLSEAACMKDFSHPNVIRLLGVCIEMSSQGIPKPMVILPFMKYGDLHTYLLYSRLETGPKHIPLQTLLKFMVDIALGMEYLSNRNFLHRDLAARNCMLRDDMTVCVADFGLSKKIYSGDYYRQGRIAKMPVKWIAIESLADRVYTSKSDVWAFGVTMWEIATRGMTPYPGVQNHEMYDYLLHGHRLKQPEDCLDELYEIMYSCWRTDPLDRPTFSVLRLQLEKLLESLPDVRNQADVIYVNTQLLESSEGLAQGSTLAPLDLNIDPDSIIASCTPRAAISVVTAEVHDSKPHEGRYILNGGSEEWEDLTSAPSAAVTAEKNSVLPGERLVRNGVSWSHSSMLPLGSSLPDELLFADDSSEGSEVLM
# UniProt Q9Y572, sequence (whole entry, looked up): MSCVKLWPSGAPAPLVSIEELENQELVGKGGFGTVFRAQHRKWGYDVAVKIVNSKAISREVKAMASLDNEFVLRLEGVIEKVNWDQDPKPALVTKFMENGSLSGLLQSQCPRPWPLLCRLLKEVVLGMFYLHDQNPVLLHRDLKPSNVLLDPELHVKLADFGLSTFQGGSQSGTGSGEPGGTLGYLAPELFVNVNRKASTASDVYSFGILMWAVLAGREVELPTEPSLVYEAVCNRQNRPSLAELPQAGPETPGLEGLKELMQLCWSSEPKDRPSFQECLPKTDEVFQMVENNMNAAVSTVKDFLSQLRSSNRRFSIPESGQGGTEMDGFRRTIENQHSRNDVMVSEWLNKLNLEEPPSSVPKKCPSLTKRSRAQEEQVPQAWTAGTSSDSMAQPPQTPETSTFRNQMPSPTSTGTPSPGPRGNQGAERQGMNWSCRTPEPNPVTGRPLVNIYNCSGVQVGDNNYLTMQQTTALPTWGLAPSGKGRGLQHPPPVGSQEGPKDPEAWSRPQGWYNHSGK
# UniProt O14578, sequence (whole entry, looked up): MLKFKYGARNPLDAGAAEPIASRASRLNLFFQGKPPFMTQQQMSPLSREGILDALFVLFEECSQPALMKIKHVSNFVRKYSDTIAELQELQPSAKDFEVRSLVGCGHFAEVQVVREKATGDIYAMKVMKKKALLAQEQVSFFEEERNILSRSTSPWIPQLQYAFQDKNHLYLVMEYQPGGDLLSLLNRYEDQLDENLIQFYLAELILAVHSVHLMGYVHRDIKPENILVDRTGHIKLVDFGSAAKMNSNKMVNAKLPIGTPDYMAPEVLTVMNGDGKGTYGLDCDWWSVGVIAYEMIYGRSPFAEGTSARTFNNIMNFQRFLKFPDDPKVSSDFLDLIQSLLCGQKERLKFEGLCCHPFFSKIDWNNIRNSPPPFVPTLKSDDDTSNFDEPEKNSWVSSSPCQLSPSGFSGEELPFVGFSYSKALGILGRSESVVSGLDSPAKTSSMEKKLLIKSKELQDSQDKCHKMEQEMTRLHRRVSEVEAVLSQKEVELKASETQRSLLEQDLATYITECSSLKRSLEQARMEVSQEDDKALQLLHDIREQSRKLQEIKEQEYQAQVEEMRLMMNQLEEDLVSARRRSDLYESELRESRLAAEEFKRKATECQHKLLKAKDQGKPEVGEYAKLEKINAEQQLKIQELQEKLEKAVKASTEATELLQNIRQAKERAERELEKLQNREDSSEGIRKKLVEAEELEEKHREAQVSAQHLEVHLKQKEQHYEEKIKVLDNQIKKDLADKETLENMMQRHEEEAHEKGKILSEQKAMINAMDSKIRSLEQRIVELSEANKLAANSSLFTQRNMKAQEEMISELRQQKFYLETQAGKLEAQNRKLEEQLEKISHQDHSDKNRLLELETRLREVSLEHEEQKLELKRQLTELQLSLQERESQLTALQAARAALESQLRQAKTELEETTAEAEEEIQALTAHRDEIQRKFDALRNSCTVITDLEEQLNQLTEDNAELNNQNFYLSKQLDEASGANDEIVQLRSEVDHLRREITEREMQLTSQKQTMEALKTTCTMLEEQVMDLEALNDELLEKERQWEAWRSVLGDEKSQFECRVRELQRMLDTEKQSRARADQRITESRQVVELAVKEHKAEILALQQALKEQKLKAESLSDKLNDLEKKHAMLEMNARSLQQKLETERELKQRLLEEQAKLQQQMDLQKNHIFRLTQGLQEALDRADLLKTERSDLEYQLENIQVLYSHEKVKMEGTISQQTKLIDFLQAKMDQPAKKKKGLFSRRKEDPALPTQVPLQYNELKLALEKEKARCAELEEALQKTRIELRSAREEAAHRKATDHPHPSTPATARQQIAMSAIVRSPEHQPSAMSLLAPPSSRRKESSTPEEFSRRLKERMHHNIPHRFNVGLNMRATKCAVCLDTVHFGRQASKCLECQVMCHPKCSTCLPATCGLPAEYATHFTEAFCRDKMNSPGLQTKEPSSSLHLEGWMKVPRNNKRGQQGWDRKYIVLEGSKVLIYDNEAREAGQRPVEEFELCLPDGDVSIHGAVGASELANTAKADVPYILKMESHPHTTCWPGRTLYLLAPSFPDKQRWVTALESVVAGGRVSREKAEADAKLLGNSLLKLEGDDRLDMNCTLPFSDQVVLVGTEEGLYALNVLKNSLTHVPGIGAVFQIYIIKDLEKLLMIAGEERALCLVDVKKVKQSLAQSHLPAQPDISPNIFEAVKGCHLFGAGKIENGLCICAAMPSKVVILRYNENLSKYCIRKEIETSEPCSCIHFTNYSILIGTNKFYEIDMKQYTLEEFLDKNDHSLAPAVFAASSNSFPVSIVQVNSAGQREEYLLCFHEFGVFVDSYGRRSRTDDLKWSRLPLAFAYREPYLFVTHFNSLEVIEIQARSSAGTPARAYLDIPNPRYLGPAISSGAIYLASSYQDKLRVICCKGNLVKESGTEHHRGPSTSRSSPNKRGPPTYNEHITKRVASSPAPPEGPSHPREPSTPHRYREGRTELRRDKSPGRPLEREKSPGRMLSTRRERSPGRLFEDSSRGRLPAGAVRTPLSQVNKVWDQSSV
# UniProt P45984, sequence (whole entry, looked up): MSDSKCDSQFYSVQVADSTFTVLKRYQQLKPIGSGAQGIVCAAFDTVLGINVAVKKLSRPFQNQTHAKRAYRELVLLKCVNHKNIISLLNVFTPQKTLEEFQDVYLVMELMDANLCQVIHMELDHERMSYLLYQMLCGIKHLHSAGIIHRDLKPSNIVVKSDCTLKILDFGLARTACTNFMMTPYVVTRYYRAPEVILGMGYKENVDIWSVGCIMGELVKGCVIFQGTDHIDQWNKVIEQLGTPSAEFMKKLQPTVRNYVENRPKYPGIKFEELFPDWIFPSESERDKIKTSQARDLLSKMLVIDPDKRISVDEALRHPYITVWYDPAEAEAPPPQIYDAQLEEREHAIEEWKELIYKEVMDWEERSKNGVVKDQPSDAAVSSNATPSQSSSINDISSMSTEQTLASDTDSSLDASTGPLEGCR
# UniProt P29320, sequence (whole entry, looked up): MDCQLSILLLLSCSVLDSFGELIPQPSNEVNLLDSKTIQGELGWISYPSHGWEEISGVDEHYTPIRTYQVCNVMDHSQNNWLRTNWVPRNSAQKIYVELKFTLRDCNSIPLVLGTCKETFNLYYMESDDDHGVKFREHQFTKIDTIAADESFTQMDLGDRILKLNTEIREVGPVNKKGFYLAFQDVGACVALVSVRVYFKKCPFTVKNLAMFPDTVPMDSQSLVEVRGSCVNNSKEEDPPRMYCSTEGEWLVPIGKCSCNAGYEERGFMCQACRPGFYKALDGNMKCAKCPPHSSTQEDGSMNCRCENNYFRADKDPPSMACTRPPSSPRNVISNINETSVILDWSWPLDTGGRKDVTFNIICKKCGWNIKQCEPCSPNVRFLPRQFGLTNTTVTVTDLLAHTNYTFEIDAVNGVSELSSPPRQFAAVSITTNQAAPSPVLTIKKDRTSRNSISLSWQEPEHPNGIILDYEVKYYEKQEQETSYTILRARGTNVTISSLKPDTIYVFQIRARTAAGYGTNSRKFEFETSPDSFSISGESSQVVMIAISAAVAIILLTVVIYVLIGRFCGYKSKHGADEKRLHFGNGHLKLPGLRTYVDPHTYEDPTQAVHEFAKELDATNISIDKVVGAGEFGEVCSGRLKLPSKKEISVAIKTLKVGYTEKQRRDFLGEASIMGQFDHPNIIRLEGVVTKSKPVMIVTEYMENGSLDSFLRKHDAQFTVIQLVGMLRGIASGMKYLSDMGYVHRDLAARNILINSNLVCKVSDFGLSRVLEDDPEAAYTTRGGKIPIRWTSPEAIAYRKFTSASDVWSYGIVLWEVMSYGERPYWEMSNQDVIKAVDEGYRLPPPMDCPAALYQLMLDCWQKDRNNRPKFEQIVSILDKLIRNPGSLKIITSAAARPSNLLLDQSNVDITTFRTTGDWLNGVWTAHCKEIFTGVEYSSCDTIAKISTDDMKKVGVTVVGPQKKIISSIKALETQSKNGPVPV
target,test,setting,how to read,remaining activity,Compound
"EPHA3 (Homo sapiens, UniProt P29320)",,1 µM,,101%,C=CC(=O)N1CCC[C@@H](n2nc(-c3ccc(Oc4ccccc4)cc3)c3c(N)ncnc32)C1
CDK2 with cyclin A2,kinase activity,20 nM,,69.1%,CC(=O)Nc1c(N)nc(SCC(=O)NN)[nH]c1=O
"MAPK9 (Homo sapiens, UniProt P45984)","enzyme activity, inhibitor","0.006774 µM, unit not given",baseline: vehicle,0.84,Cc1cc(NC(=O)c2cccc(NC(=O)/C=C/CN(C)C)c2)ccc1Nc1nccc(-c2cccnc2)n1
"PIP4K2A (Homo sapiens, UniProt P48426)",kinase activity,"1 µM, human enzyme, added: ATP 10 µM",baseline: DMSO control,106%,COc1cc(-c2cncc3c2CN(C)Cc2cc(N4CCNCC4)ccc2-3)cc(OC)c1OC
"CIT (Homo sapiens, UniProt O14578)",enzyme activity,10 µM,,100%,O=C(NC1CCC1)c1ccc2nc(-c3cccc(NS(=O)(=O)NCCN4CCCCC4)c3)cn2c1
human PhKγ2(h),kinase activity,1 µM,,98%,O=C(O)c1ccc(Nc2ncc3c(n2)-c2ccc(Cl)cc2C(c2c(F)cccc2F)=NC3)cc1
"HIPK2 (Homo sapiens, UniProt Q9H2X6)",enzyme activity,10 µM,baseline: control,10%,COc1cc(N2CCN(C)CC2)ccc1Nc1nc(N)n(C(=S)NCc2c(Cl)cccc2Cl)n1
"RIPK3 (Homo sapiens, UniProt Q9Y572)","kinase activity, inhibitor, HotSpot radiometric","100 nM, added: ATP 10 µM",,44.9 ± 0.3%,C=CC(=O)N1CCC[C@@H](n2nc(-c3ccc(Oc4ccccc4)cc3)c3c(N)ncnc32)C1
CDK2 with cyclin A2,"kinase activity, inhibitor, ADP-Glo kinase",100 nM,,41.8%,CNC(=O)c1cc(Oc2ccc(NC(=O)Nc3ccc(Cl)c(C(F)(F)F)c3)cc2)ccn1
"PRKACB (Homo sapiens, UniProt P22694)","kinase activity, inhibitor, HotSpot radiometric","100 nM, added: ATP 10 µM",,84.8 ± 0.4%,COc1ccc(F)cc1C(=O)NCc1ccc(-c2nn([C@@H](C)C(F)(F)F)c(N)c2C(N)=O)cc1
CDK2 with cyclin A2,kinase activity,100 nM,,62.4%,CC(=O)Nc1c(N)nc(SCC(=O)N/N=C/c2ccc([N+](=O)[O-])cc2)[nH]c1=O
MERTK,kinase activity,"10 µM, added: 10 µM ATP",,58%,COc1cc(F)ccc1-c1ncnc(Nc2cccc(C[S@](C)(=N)=O)c2)n1
MERTK,"kinase activity, inhibitor",1 µM,baseline: untreated control,88%,CNc1ncc2c(/C=C/C(=O)N3CCC(OC)CC3)nn(Cc3cccc(C(F)(F)F)c3)c2n1
MERTK,"kinase activity, KinaseProfiler","0.03 µM, species human",baseline: control,100%,Cc1cc(Nc2cc(N3CCN(C)CC3)nc(Sc3ccc(NC(=O)C4CC4)cc3)n2)[nH]n1
FGFR4,kinase activity,1 µM,,79%,COc1cc(Nc2ncc3c(n2)-c2ccc(Cl)cc2C(c2c(F)cccc2OC)=NC3)ccc1C(=O)O

# Excerpt of the above:
target,test,setting,how to read,remaining activity,Compound
CDK2 with cyclin A2,"kinase activity, inhibitor, ADP-Glo kinase",100 nM,,41.8%,CNC(=O)c1cc(Oc2ccc(NC(=O)Nc3ccc(Cl)c(C(F)(F)F)c3)cc2)ccn1
"PRKACB (Homo sapiens, UniProt P22694)","kinase activity, inhibitor, HotSpot radiometric","100 nM, added: ATP 10 µM",,84.8 ± 0.4%,COc1ccc(F)cc1C(=O)NCc1ccc(-c2nn([C@@H](C)C(F)(F)F)c(N)c2C(N)=O)cc1
